# Published values collected from several papers.
# Lines come from different studies, so protocols differ. ± marks the error that the study gave.
# GBA1 R534H: Lysosomal acid glucosylceramidase (GBA1, Homo sapiens, UniProt P04062, R534H)
# Chain of UniProt P04062 (whole entry, unmodified, looked up): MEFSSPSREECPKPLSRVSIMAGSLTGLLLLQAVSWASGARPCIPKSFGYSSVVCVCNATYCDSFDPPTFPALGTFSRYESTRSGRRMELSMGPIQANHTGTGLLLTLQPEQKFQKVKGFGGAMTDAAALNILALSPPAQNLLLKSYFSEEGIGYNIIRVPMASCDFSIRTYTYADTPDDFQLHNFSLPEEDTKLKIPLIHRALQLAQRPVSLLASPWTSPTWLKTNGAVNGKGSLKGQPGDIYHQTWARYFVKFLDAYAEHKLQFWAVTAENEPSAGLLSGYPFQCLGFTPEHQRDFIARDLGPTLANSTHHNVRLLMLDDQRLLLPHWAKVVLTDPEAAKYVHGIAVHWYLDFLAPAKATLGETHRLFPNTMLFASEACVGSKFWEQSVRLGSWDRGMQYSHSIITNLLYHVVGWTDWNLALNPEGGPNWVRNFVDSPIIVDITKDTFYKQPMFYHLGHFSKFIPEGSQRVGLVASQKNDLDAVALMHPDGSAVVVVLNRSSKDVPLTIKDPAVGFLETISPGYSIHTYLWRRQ
Compound,tested on,test,test system,conditions,how to read,endpoint,result
CC(C)n1ncc2c(C(=O)NC[C@@H](C)N)cc(C3CC3)nc21,,metabolic stability,"mouse, liver microsomes",,,scaled CLint,< 38 mL/min/kg
Cc1c(Cc2ccc(Cl)c(O[C@H](C)C(=O)O)c2)c2ccc(C(=O)N[C@@H](C)c3ccc(C(C)(C)C)cc3)cc2n1C,,,human liver microsomes,"1 µM, with: microsomes 1 mg/mL",,half-life,> 1 h
CCCCN1C(=O)c2cccc3c(NCCCCCCN4CCOCC4)ccc(c23)C1=O,,,water,pH 6.0,,fluorescence lifetime,4.2 ns
COCC1CN(C2CCN(c3cc(OC)c(Nc4ncc(Br)c(Nc5ccc6c(c5P(C)(C)=O)OCCO6)n4)cc3C)CC2)C1,,phase 1 trial,"human, advanced EGFR-mutant NSCLC","oral, dose not given",,treatment-related serious AEs,14.8%
C[C@@H](Nc1nc2c(cnn2C(C)(C)C)c(=O)n1Cc1cccc(F)c1)c1ccc(Cl)cc1,,,"C57BL/6J mice, male, brain","oral, 10 mg/kg, 1 h",,brain concentration,236 ± 41.6 ng/g
COc1ccc(C(N)=O)cn1,,,"Han Wistar rats, male, plasma","oral, 30 mg/kg, 1.50 h",,concentration at time,63.4 µM
Cc1cc(-c2ccc(C(=O)[C@@H]3CCCC[C@H]3C(=O)Nc3cnn4c3C(=O)NCC4)cc2)[nH]n1,,,"human, urine","oral, 200 mg, 0-6 h",reference: dose,cumulative recovery of radioactivity,2.08%
CC(C)C[C@@H]1NC(=O)[C@H](CCCCN)NC(=O)CNC(=O)[C@H]2CCCN2C(=O)[C@H](CCCCN)NC(=O)[C@H](CC(C)C)NC(=O)[C@H](CCCCN)NC(=O)C2CCC=CCCCC(NC(=O)[C@H](CCCCN)NC1=O)C(=O)N[C@@H](CCCCN)C(=O)NC(C(N)=O)CCCC=CCCC(N)C(=O)N[C@@H](CCCCN)C(=O)N2 (stereo partly shown),,RP-HPLC C18,,hydrophobicity,,retention time,14.3 min
CN(C)CCNc1ccc(-c2nn(C)c(=O)c3ccccc23)cc1[N+](=O)[O-],Trypanosoma cruzi,"reporter mRNA translation, inhibitor, measured: capped polyadenylated Renilla luciferase mRNA",cell-free extract,concentration not given,reference: control RNA,relative translation,95.7%
O=C(Nc1cnccc1-c1ccc([18F])nc1)c1ccnc(NC(=O)C2CC2)c1,,PET imaging,"FVB/NJ mice, both sexes, liver","intravenous, 60 min post-injection",,SUV,8.04
[11CH3]N1CCC(NC(=O)c2cc(-c3c(O)cc(O)cc3Oc3ccc([N+](=O)[O-])cc3)on2)CC1,,,"Wistar rat, female, healthy, spleen","intravenous, 18.5 MBq, 2 min",,SUV,2.3 ± 0.2
CC(C)=CCC1=C([O-])C(=O)c2ccccc2C1=O.CC(C)=CCC1=C([O-])C(=O)c2ccccc2C1=O.Cc1cc2cccnc2c2ncccc12.O.[Cu+2],,cyclic voltammetry,"CH2Cl2, Bu4NPF6",0.1 mM,reference: Ag/AgCl sat. KOH,Epa1 anodic peak potential,1.34 V
C/C(N)=N/C(=N\S(=O)(=O)c1ccc(C(F)(F)F)cc1)N1C[C@H](c2ccccc2)C(c2ccc(Cl)cc2)=N1,,,"C57BL/6 mouse, plasma","intravenous, 10 mg/kg",,AUC(0-inf),10500 ng·h/mL
O=S1(=O)CC2CCCCC2CS1 (stereo not shown),,"phase solubility, NMR",water,"25 °C, with: hydroxypropyl-β-cyclodextrin 21.4 mM",,solubility,4.14 mM
C=CC(=O)Nc1cc(Nc2nccc(-c3c[nH]c4ccccc34)n2)c(OC)cc1N(C)CCN(C)C,,storage stability,human plasma,"30 d, -80 °C, MQC level",,recovery,98.7%
OC[C@@H]1[C@@H](O)[C@H](O)[C@@H](O)CN1CCCCCOCC1CCC1,GBA1 R534H,"inhibitor, 4MU-β-D-glucopyranoside",,with: 4MU-β-D-glucopyranoside,,IC50,13 µM
Cc1ccc(-c2cn(Cc3cccc(Cl)c3)c3[n+]2CCC3)cc1.[Br-],Trypanosoma cruzi,"reporter mRNA translation, inhibitor, measured: capped polyadenylated Renilla luciferase mRNA",cell-free extract,concentration not given,reference: control RNA,relative translation,110%
CC(C)(O)c1ncc([S@](N)(=O)=NC(=O)Nc2c3c(cc4c2CCC4)CCC3)s1,,,healthy human,"oral, 10 mg single dose, capsule formulation",,total adverse events,33%
OC[C@@H]1[C@@H](O)[C@H](O)[C@@H](O)CN1CCCCCOCc1ccc(-c2ccncc2)cc1,GBA1 R534H,"inhibitor, 4MU-β-D-glucopyranoside",,with: 4MU-β-D-glucopyranoside,,IC50,2 µM

# A few entries again:
Compound,tested on,test,test system,conditions,how to read,endpoint,result
C=CC(=O)Nc1cc(Nc2nccc(-c3c[nH]c4ccccc34)n2)c(OC)cc1N(C)CCN(C)C,,storage stability,human plasma,"30 d, -80 °C, MQC level",,recovery,98.7%
